Assay results collected from several papers.
Every numbered part comes from another study and shows a few of its results, in no order.
Sequence of UniProt P62253 (whole entry, looked up): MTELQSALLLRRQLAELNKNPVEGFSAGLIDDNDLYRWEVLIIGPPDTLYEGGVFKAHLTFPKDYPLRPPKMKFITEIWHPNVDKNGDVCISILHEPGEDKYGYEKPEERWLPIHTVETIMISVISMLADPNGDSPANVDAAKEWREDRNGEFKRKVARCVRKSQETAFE
Sequence of UniProt P68036 (whole entry, looked up): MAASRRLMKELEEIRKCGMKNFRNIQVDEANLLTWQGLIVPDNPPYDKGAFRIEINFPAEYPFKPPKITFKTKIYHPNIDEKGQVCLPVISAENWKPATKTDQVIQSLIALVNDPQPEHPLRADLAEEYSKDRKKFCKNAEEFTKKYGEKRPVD
Sequence of UniProt P63146 (whole entry, looked up): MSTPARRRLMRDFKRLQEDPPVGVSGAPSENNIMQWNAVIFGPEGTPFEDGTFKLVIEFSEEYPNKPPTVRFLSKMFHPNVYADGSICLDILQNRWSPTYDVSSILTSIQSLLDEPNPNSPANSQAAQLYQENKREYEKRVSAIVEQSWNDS
Sequence of UniProt Q16763 (whole entry, looked up): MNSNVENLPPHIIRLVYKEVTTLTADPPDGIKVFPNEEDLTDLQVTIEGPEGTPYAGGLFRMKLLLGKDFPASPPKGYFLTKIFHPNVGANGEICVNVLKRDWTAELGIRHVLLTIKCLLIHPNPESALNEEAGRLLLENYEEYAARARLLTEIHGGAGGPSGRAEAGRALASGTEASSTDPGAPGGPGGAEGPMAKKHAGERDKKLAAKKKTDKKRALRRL
Sequence of UniProt Q9NPD8 (whole entry, looked up): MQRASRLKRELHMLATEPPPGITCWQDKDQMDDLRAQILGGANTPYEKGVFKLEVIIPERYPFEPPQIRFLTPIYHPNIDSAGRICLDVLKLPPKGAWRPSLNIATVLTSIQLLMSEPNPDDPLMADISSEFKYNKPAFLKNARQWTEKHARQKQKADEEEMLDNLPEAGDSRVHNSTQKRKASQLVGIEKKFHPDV
Sequence of UniProt Q8N2K1 (whole entry, looked up): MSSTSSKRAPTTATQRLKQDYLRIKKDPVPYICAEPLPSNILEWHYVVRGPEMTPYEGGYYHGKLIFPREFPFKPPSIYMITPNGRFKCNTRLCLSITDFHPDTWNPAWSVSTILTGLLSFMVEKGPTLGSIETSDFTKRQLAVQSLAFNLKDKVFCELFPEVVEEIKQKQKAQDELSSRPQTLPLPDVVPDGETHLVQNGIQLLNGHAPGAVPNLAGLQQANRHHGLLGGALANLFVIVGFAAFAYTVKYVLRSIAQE
Sequence of UniProt Q9H832 (whole entry, looked up): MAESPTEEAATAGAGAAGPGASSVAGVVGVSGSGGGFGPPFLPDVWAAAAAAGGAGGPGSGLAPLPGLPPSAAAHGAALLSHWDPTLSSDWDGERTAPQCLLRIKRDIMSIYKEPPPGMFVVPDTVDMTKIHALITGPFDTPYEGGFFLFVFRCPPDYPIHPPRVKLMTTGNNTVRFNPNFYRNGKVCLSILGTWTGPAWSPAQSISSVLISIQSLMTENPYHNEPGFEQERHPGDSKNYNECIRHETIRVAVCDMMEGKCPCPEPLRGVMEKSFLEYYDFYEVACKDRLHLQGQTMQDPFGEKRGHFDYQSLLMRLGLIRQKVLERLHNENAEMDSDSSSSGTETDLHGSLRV
Sequence of UniProt O00762 (whole entry, looked up): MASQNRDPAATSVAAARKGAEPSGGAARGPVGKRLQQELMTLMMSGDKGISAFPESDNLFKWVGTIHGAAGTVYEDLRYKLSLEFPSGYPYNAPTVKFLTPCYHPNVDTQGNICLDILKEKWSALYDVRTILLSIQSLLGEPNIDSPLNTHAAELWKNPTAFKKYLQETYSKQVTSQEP
Sequence of UniProt Q9Y385 (whole entry, looked up): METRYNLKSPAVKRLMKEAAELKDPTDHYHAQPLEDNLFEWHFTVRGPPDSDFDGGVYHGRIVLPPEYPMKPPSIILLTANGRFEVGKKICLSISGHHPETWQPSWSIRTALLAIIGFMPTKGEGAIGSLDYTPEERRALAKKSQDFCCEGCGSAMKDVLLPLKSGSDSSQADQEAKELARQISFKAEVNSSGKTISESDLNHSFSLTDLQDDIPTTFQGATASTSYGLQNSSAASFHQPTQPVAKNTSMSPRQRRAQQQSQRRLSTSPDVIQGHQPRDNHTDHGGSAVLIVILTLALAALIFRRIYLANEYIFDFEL
Sequence of UniProt Q9C0C9 (whole entry, looked up): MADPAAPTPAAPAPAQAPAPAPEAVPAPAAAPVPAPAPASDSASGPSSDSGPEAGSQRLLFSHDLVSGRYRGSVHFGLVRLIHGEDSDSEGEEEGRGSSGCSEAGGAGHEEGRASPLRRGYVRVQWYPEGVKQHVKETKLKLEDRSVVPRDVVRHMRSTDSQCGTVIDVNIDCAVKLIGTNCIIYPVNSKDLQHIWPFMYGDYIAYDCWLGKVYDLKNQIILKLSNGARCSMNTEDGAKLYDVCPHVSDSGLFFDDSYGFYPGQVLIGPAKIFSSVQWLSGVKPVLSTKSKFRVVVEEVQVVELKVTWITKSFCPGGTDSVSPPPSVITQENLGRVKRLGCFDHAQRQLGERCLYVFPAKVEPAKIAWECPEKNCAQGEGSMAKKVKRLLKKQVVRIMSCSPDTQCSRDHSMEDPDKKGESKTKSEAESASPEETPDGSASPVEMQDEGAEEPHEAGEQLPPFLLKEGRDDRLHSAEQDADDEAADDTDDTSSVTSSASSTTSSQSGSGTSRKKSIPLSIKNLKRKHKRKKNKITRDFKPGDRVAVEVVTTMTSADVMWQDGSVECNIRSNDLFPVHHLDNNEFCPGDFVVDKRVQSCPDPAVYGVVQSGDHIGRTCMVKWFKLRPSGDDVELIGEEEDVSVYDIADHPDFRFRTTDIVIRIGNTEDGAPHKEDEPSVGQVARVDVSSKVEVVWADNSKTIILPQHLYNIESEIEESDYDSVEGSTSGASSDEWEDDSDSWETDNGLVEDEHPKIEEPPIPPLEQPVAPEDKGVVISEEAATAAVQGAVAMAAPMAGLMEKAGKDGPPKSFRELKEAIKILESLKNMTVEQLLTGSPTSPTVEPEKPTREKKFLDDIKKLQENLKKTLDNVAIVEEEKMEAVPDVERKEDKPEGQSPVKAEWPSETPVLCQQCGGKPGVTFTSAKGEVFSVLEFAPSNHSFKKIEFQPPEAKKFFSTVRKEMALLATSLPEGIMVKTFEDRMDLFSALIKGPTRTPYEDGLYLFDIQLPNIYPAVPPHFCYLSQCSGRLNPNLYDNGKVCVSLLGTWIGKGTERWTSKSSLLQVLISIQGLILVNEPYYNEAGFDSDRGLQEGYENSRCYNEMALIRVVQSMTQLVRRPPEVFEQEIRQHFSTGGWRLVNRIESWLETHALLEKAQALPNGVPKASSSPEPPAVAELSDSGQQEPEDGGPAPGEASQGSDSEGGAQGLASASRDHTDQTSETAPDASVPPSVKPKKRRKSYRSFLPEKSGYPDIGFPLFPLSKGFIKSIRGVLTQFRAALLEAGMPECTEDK
Sequence of UniProt Q7Z7E8 (whole entry, looked up): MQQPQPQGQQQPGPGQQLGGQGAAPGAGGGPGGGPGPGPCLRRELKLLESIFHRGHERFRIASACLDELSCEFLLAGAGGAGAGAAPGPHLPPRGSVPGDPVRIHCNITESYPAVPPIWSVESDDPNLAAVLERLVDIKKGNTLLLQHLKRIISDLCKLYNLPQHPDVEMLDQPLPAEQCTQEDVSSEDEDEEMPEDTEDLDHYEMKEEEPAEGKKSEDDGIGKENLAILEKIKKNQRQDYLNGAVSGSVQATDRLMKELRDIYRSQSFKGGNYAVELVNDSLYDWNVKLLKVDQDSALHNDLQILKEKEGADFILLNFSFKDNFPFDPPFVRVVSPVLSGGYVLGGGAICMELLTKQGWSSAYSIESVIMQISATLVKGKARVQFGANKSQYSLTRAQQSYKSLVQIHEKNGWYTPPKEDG
Sequence of UniProt P61081 (whole entry, looked up): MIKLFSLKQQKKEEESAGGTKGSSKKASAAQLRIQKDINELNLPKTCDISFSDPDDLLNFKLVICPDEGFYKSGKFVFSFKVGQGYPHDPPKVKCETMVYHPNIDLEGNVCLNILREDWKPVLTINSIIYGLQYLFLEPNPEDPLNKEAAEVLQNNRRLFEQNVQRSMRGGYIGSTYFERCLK

Set 1
Target: RNA binding protein fox-1 homolog 2, RRM domain, GST-SBP tag (RBFOX2, Homo sapiens, UniProt O43251-10, residues 100-194)
Technique: RNA Bind-n-Seq
Molecule type: RNA
Sample: in vitro
Concentration: 365 nM
Notes: natural RNA segment, single round, ends assumed
Reference: no-protein control
Reading: higher = stronger binding
Construct (chain): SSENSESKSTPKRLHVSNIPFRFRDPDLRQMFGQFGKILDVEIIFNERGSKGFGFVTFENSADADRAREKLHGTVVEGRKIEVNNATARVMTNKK
| Oligonucleotide | RBNS enrichment (R) |
| --- | --- |
| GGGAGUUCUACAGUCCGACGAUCUGAGCAACAUCCCUAGCCUUCAGAAUAGAAUUUUUGAUGUUGGAAAUCCUGUAUUUAAAGGAAACCUUAAUUAUCAAUGGAUUUAUGAAGGAAAGUUAAAAACAAAUAUGUGGAAUUCUCGGGUGCCAA | 0.475 |
| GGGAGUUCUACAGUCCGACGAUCAAGUGCCUCCCUCCCUCCUCCUCUUUACUGAAACUGAAACCAAAGCGUUCACAGUUAGAUUUUCACCUCGUGCCACUCUCUUUUGGGGUCUGGCUUGAGCAUCUAUGGGCUGGAAUUCUCGGGUGCCAA | 0.594 |
| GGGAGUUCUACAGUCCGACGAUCUACUUACAACUCUGGUAAGCCUAGCUUCUCCGCCUCAGCCCUUCUGCUUCUGGAAGGGCUAUCCUGGGGGUGAACUUGAAACUCUCAUCAGGCUUCUGCAAAAGCUCUUCUGGAAUUCUCGGGUGCCAA | 0.218 |
| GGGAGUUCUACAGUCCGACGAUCGGUGGCUGUGUCUCUCCCCGGUAAUGUCACUGUUUUUAUUCCUUCCAUCUAGCAGCUGGCCUAAUCACUCUGAGUCACAGGUGUGGGAUGGAGAGUGGGGAGAGGCACUUUGGAAUUCUCGGGUGCCAA | 0.347 |
| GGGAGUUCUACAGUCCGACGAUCAGUGAGCAGGAACAAGUUAUAUUGCCACUGCUGUGGCAAAUUUUGGUGAACUUUUGGGGUCAUUAUAUCAAUUUUUUCUUUGGAUUCAAAUUGUAAUGUCCCCUGCAUUUUGGAAUUCUCGGGUGCCAA | 0.799 |
| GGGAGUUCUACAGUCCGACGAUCCCUCCCUGUUGGGAGCAAUCUGUACGUCUGUUUUGUCAGCUUCAGGUUCUGGUACUUUGAAGUCAAUGCUGUCAGGCCAGGGAAAUAAAAUAAUUGCUUACCUUAAAAGUUGGAAUUCUCGGGUGCCAA | 0.298 |
| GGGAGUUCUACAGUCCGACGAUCAUUCACUUGUUCAUUCAAGUAUUUAUUGAAUACCUGCCUCAAGCUAGAGAGAAAAGAGAGUGCGCUUUGGAAAUUUAUUCCAGUUUUCAGCCUACAGCAGAUUAUCAGCUUGGAAUUCUCGGGUGCCAA | 0.318 |
| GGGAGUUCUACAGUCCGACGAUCUAAAAAGUGUAUUUCUUUGCCAUUUGAUUUGGCUGAAGGACAGUCAGCAUCCUGUGUGAGAACACAUUUUGAAAGCCCAAUGACAUCAACUGGGUAAAGGAAACACUAACUGGAAUUCUCGGGUGCCAA | 0.659 |
| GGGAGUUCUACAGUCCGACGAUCUUAAAAGUAUUCAUUCCUCUCGAGGACCCAGGAUCAAUUUCCAGCAUCCACAUGGCAGCUCACAACCAUCUGGAACUCCAGUUCCAGAGAAUCCAAUGCCCUUCUGGCCUUGGAAUUCUCGGGUGCCAA | 0.358 |
| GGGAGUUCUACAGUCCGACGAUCAGGGAUAGUCAUUUCUCAAAUGAGUUCUCUAAUAGAGAUUUUGUUCCUACAAUGUAGUCUGCACUGAAAAGAGAAUAGAGGAGGGUAGGGUGGUCAUUUUGCAGGAAUUUUGGAAUUCUCGGGUGCCAA | 0.881 |
| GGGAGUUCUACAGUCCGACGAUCUGUGUUUGUAGUGUGAGCUCUUGUUUUUGAAAUGAUUGCUUCAGUCUUUGCCUUUGUUUGCACUGUGUGUUCAGUGAAAACUAGAGAAACACAAUAAGCAAAUCACAUGAUGGAAUUCUCGGGUGCCAA | 0.469 |
| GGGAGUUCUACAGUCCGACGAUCUUCCUUGGGGAAGAUGCGUGGAGCUGUCCACAGAUAGCCUACCCACUGGAUUGCUACCGCCGUGUGUGGUGUUUUCAUACAAACGUACGUUUUGAGAGAAAAGUCAAAGGUGGAAUUCUCGGGUGCCAA | 0.231 |

Set 2
Molecule: B1 (Ltn1 RING domain)
Technique: yeast two-hybrid
Sample: yeast
Notes: mostly zero background
Reference: not given
Reading: higher = stronger interaction
B1: Ltn1 RING domain (UniProt Q6A009); chain VDKRFEGVEDCMICFSVIHGFNYSLPKKACRTCKKKFHSACLYKWFTSSNKSTCPLCRETFF
| target | lacZ reporter activity |
| --- | --- |
| UBE2J2 UBC core domain (UniProt Q8N2K1) | 0 |
| UBE2C UBC core domain (UniProt O00762) | 0 |
| BIRC6 UBC core domain (UniProt Q9NR09) | 0 |
| UBE2J1 UBC core domain (UniProt Q9Y385) | 0 |
| UBE2T UBC core domain (UniProt Q9NPD8) | 0 |
| UBE2I UBC core domain (UniProt P63279) | 0 |
| UBE2G1 UBC core domain (UniProt P62253) | 0 |
| UBE2M UBC core domain (UniProt P61081) | 0 |
| UBE2B UBC core domain (UniProt P63146) | 0 |
| UBE2O UBC core domain (UniProt Q9C0C9) | 0 |
| UBE2L3 UBC core domain (UniProt P68036) | 0 |
| UBE2S UBC core domain (UniProt Q16763) | 0 |
| UBE2Z UBC core domain (UniProt Q9H832) | 0 |
| UBE2Q1 UBC core domain (UniProt Q7Z7E8) | 0 |

Set 3
Target: Interferon regulatory factor 5, full length, phosphomimetic (IRF5, Homo sapiens, UniProt Q13568-2, residues 1-514, S451D/S453D/S456D/S462D)
Technique: protein-binding microarray
Molecule type: double-stranded DNA, one strand shown
Sample: in vitro
Concentration: 940 nM top
Notes: 60-bp whole probe
Together with: salmon DNA 0.4 mg/ml
Reference: random background probes
Reading: higher = stronger binding
All sequences stand within: GCCTAGCAC … GTCTTGATTCGCTTGACGCTGCTG
| Oligonucleotide | fitted relative affinity [z-score] |
| --- | --- |
| ATTCTCTTCTTGCATCTGGGTGTGCTA | 1.82 |
| TTAGATCTCTGTATCGATTAGTGCTAG | 1.64 |
| GACGGACTGGGGTTTCGCGACGTGCTA | 0.344 |
| TTAGGTACCCTTATCCTTTAGTGCTAG | -0.126 |
| GACTGTTTCCTACTGCTGACGTGCTAG | 0.613 |
| TCATATACACACTATAGTACTGTGCTA | 0.642 |
| CTTATTCTCTACTTGTGTCTGTGCTAG | 2.51 |
| GACGAAATCGGGACTGGAGACGTGCTA | -0.466 |
| TTAGGACTGAGACTGGATTAGTGCTAG | -0.334 |
| AATGACTCTATGAAGTAGTTGTGCTAG | -0.513 |
| TTAGGACTGGATACTGGGTTAGTGCTA | -0.544 |
| TTAGAACTTGGGACTGGATTAGTGCTA | -0.582 |
| GACGTTATCGACTATCGGGACGTGCTA | 0.0993 |
| CAAAAATGATTGGTTGAACAGTGCTAG | -0.216 |
| AGTTTTTACTTTCTGAATGCGTGCTAG | 1.93 |
| GACGATATCGGGTTTCGAGTCGTGCTA | 3.32 |
| ACCTTTGTTTTTTTCTATATGTGCTAG | 2.14 |
| GACGATATCGGGTATCGAGGCGTGCTA | 0.879 |
| GACGGTCTCCTTCTCCTAACGTGCTAG | 0.663 |
| TCATGTTTGGTCCTGATACTGTGCTAG | 0.365 |
| TTAGGTTTCGGTTCCGGCTAGTGCTAG | 14.9 |
| GACGCTATCGACTTTCGGGACGTGCTA | 0.926 |

Set 4
Target: Histone acetyltransferase KAT6A, both winged helices, GST fusion (KAT6A, Homo sapiens, UniProt Q92794, residues 1-181)
Technique: protein binding microarray
Molecule type: double-stranded DNA, one strand shown
Sample: in vitro
Concentration: not given
Notes: 8-mer, flanks averaged, mean of 2 arrays, mostly near background
Reference: not given
Reading: higher = stronger binding
Construct (chain): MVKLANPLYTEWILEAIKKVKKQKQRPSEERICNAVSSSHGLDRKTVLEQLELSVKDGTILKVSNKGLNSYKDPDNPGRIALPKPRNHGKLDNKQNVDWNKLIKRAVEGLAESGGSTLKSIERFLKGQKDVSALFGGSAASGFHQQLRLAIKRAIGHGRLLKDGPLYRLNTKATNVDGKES
| Oligonucleotide | E-score |
| --- | --- |
| AGAAAAAC | 0.0717 |
| TCAAGCCA | -0.0144 |
| AGATGTAT | -0.0855 |
| GAGCCCCC | -0.185 |
| CACCAAAG | -0.106 |
| AACCGAAA | 0.085 |
| GCTAGTGA | -0.125 |
| CCGGGTGA | 0.26 |
| AGCACGTG | -0.0222 |
| TCGCACGA | 0.0338 |
| AACTGTAG | -0.247 |
| CGGGGGGC | 0.172 |
| TAAGCCAA | -0.131 |
| ACCGCAAA | 0.19 |
| ATTGTATC | -0.0901 |
| AGTTCCAC | -0.112 |
| AACGATTA | -0.0191 |
| GGGTGTGA | 0.0209 |
| CCCCCTCA | -0.23 |
| CACCGGGC | 0.141 |
| CCTCACCA | -0.187 |
| TCGTCAAA | -0.027 |
| CAGTTCAA | -0.00859 |
| AAGCCGCA | 0.217 |

A few entries again (set 4):
| Oligonucleotide | E-score |
| --- | --- |
| TCAAGCCA | -0.0144 |
| AGATGTAT | -0.0855 |
| GAGCCCCC | -0.185 |
| CACCAAAG | -0.106 |
| AACCGAAA | 0.085 |
| GCTAGTGA | -0.125 |
| CCGGGTGA | 0.26 |
